Measured values gathered from unrelated publications.
Every numbered part comes from another study and shows a few of its results, in no order. Positions count from the first letter of the parent shown.

Series 1
Target: RNA binding protein fox-1 homolog 2, RRM domain, GST-SBP tag (RBFOX2, Homo sapiens, UniProt O43251-10, residues 100-194)
Method: RNA Bind-n-Seq
Form: RNA
Matrix: in vitro
Tested at: 365 nM
Notes: natural RNA segment, single round, ends assumed
Reference: no-protein control
Direction: higher = stronger binding
Shared flanks, not repeated: GGGAGUUCUACAGUCCGACGAUC … UGGAAUUCUCGGGUGCCAA
Target sequence (chain): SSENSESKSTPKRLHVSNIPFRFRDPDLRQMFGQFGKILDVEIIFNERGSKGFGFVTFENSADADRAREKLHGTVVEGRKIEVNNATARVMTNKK
`AUGGCCAGAUGGCCUGUAGGAAGAGCUACCAGGGCUUCCAGACCUGUGGAACGAAGAGGAUGGGGAAAAGGCAGAGGGCACUGAGUGUCCCUUUAAAAACUAACCCACUG`: “RBNS enrichment (R)” 0.336.
`AACCAGGCUUUGUGGGGGGUGAGAGAAUACAGACACAAGUGGCAGGAUUCAGAUGGAAGCUUCGCAAGGCUGGGGGCCGAGGACCACCCACUUCUCUUUCCCAGCCCUAG`: “RBNS enrichment (R)” 0.513.
Under “RBNS enrichment (R)”, `ACUAGCCUGCCACUCCCAAUCACACACAGCAGAUGUCAGUGCUGUGCUAAUAUUAGCUGCAUUUCCUGCAGGGCAGGGAUGCGACCUUGCACAUGCUAGGCAAGCUCUCU` is recorded as 0.919.
For `UUUACAGUGGCAAAAAUAAUGACAUGUAGCAAAGAUUUUCAAACAAAAUAUUUUUUCCUUUUGUAAAUUUCUUGUGUUGUGUGAUCUUGAUUGCGGCUUUAUCAUUCCUU`, “RBNS enrichment (R)” read 0.519.
For `UAAAGAAAUGUGCCUAAAGUAUUCUUUUCUGGAAUAAUUUGUAUGUUCUUUUAUAAAGAUAUGGAUUGGUUUACCAGCUGUUUAAAAAAAAAAACAUGUGUCCUAGCUGG`, “RBNS enrichment (R)” read 0.713.
Under “RBNS enrichment (R)”, `AUACUUAGAUGUCUAACUGUUUAAUUGCUACAGAGCUUUAUAGAUAUUUAGAGAAAAGACUUAAUCAAUUAGUAAAUAAAAUUGCCUAUGGCAGGAUUCUUUCUUGAAUU` is recorded as 1.3.
`UGACUUUACAUGAAACAAGUUCAGUUUCGUUUACCAGCCUUUCUGGGUUCCCUUUGACUCCCCUGCUAACCCCACAUAAUUGAGAAUGUUUUGACCAAGUGUAAAAAUAG` — result for “RBNS enrichment (R)”: 0.617.
Under “RBNS enrichment (R)”, `CCUCAGCCGGUGGGUCACUUCUCCAGUGUCCAGUGCCAUCUUUCUCGACCCUGUUUCUUUCCAUUCAAGAACCGUCGGUCCCCUUGUAAUAAAGGUGGUAGAUUUCAUUA` is recorded as 0.227.
`UCACUUGGCAAAUGUAACGGCUCAGGUACCCUGGCUUCCUUCCCAGAAACAAGCCUUGCCUGUGCAUCCUGGAGAGUUAGGUCCUUCAGAAGGCCAGAGCUGGGACAAGC`: “RBNS enrichment (R)” 1.86.
Under “RBNS enrichment (R)”, `CAUGCACAGUUAUUACAAAUCAGGAGCGUUUGGAAAGUUCACUGGGACGAGUGUGAUUUUUUGUUGAGUGCAUUACAUCUUCACAUGGGGGCGGGGAGGUCUUUUCCCUG` is recorded as 0.74.
For `UCGUGCACUUUGAAUACCAAUCAGGUGUUUUCUGUGCUACUAGUUGUCACGUUGCAUUCAUGUUCACCUCCUGAUUUAAGUAUCUCGGGUGUGCCCAGCCACUAAAGCAC`, “RBNS enrichment (R)” read 0.223.
`GAUGAUUUAAAAUUUUAAACCUGUUACAUUGAAAAACAUUGAAGUUCGUCUUGAAGAAAGCAUUAAGGUAUGCAUGGAGGUGAUUUAUUUUUAAACAUAACACCUAACCU`: “RBNS enrichment (R)” 19.3.

Series 2
Target: RING finger protein unkempt homolog, zinc fingers 1-6, GST-SBP tag (UNK, Homo sapiens, UniProt Q9C0B0, residues 30-357)
Method: RNA Bind-n-Seq
Form: RNA
Matrix: in vitro
Tested at: not given
Notes: RNA with constant flanks, human-mouse chimeric sites, ends assumed
Reference: input RNA pool
Direction: higher = stronger binding
Shared flanks, not repeated: GGGAGUUCUACAGUCCGACGAUC … CAACAGAGGAUUGAGCAUCA
Construct (chain): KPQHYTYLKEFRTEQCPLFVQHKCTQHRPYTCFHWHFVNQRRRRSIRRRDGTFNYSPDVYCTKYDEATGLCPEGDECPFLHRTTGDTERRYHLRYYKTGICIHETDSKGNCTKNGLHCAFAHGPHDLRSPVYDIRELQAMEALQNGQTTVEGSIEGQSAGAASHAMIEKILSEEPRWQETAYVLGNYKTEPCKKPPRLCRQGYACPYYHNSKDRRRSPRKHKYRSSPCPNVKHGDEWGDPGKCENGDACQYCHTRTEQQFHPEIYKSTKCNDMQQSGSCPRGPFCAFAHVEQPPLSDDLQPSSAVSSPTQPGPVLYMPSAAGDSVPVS
`UUAAUCCCCUUUACUGCUCCCCCACUUCUCAUGGUAAUAACAAAGUCUUAUAUUCCCGUCCUAGCUUUCACUCAGAUGGCUUAUGGAGCCGGUUUCCUAUCUUUCUUGGGAGGGAUCAGA` has a bound/input enrichment of 0.208 ratio.
`UCUUAACUUAUUCAUUUAACUUAUUUUUAUAGCUAGAUAAAUAUUGUUAGUCUUAGUCAAUAGCUCACAUUUUUUGAAAAGCAUGCUCUCCCUGUCCAUUUGUCUUAUAACAUGACCCAG` has a bound/input enrichment of 57.7 ratio.
`GCCACCAGAUCCCAGAAACAUGACCCUUGCUGCCUACAAAGAGAAGAUGAAGGAGCUCCCGCUGGUGUCUCUGUUCUGCUCUUGCUUCCUGGCCGAUCCCCUGAAUAAGUCGUCCUACAA` gave a bound/input enrichment of 0.174 ratio.
The bound/input enrichment of `UUGCUACUAACUCCAUGGGUCAAGUUCCUGUGGGAAUCAUACAGGCAGUGUUUGGACCUUCUUCGAAACAAUUCUAGAGUAGAGCGCCUGUACCAUGAUAUCGCCCAACAAGCUUUCAAA` is reported as 0.155 ratio.
`UGACAAGCACGAGCAUCAGCCAUGCCUUUCCUUGACAUACAGAAAAAGCUGGGCAUCAGCCUGGACCGAUGGUUGACGUUCCUAAGCGCAGAACAGCCCUAUAAGAACGCCGCUCGGUGC` gave a bound/input enrichment of 0.0762 ratio.
With `GGACAUCUGUCAAAUUGUUAUGUUCCUGUGAAACAAGUGAACACUCUUCAUAUACUAAUUUAGUUGUACAUCUGUAUGAUAGAGAAAUGUAAAUAUGUUAAUCCAAGCAAUGUGUCACUU` the bound/input enrichment was 0.482 ratio.
With `CCAAGUGAUUCAUCCCAAGGACAGGCAACCCCAUUUGAUGCCUGGACUGAUGACAGUAUGGAAGGGCCUAGUCAAAAUGUUGAAGCUGAGUCAAUUCAGGAUGCCAUGAGUAUGGAAGAG` the bound/input enrichment was 0.277 ratio.
The bound/input enrichment of `GAGCGUCUUGCCCGCACUGGGAUCAUCGUGACCACGAGUGAGGCUGUCCUCCUACAGCUGGUGGCUGACAAAGACCACCCGAAGUUCAAGGAAAUUCAGAACCUAAUUAAGGCGAGUGCC` is reported as 0.1 ratio.

Series 3
Target: Histone acetyltransferase KAT6A, both winged helices, GST fusion (KAT6A, Homo sapiens, UniProt Q92794, residues 1-181)
Method: protein binding microarray
Form: double-stranded DNA, one strand shown
Matrix: in vitro
Tested at: not given
Notes: 8-mer, flanks averaged, mean of 2 arrays, mostly near background
Reference: not given
Direction: higher = stronger binding
Target sequence (chain): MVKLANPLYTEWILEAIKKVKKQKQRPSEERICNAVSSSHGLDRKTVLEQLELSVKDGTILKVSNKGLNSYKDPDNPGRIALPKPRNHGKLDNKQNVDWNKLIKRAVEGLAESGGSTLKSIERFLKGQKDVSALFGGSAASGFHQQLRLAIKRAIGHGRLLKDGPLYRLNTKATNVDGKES
The E-score of `TGAGGCCA` is reported as -0.207.
`CTACCGTC` gave an E-score of 0.168.
`CTTGAGAA` has an E-score of -0.234.
The E-score of `ATAGATGG` is reported as -0.143.
With `ACCTAGTG` the E-score was -0.144.
For `CAAAAACA`, the E-score was -0.0348.
`GCAGCCGA` gave an E-score of 0.146.
With `CATGCTAC` the E-score was -0.0826.
With `CGAAGTAG` the E-score was -0.052.
`ATAGGGGG` gave an E-score of -0.267.
The E-score of `CCGTATAG` is reported as 0.15.
The E-score of `TGTCGACA` is reported as -0.135.
`AACTTAGC` has an E-score of -0.148.
For `ACGGGAGT`, the E-score was 0.15.
`CGGTCCCA` has an E-score of 0.0696.
For `GCCAATCA`, the E-score was -0.195.
For `ATAATTAT`, the E-score was -0.0133.
For `AACATGGT`, the E-score was -0.102.
`AAGCCGCC` gave an E-score of 0.227.
With `CTTTAGTA` the E-score was -0.177.
For `CACCATGG`, the E-score was -0.105.
The E-score of `GCTCTACC` is reported as -0.0187.

Series 4
Target: Interferon regulatory factor 5, full length, phosphomimetic (IRF5, Homo sapiens, UniProt Q13568-2, residues 1-514, S451D/S453D/S456D/S462D)
Method: protein-binding microarray
Form: double-stranded DNA, one strand shown
Matrix: in vitro
Tested at: 940 nM top
Notes: 60-bp whole probe
Added: salmon DNA 0.4 mg/ml
Reference: random background probes
Direction: higher = stronger binding
Shared flanks, not repeated: GCCTAGCAC … GTCTTGATTCGCTTGACGCTGCTG
For `TCATGTTGCAGACTCGAACTGTGCTAG`, “fitted relative affinity” read -0.162 z-score.
Under “fitted relative affinity”, `TAAGGTATCCTACTGCTTTAGTGCTAG` is recorded as 0.065 z-score.
For `TTAGGACTGCTTCTCTTTTAGTGCTAG`, “fitted relative affinity” read 0.362 z-score.
`TCAGTTTTTATTTTCTGACTGTGCTAG`: “fitted relative affinity” 1.29 z-score.
`GACGGTATCGACCTTCGGGACGTGCTA` — result for “fitted relative affinity”: 3.06 z-score.
`TCCCACAGTCGAAAGTCTGCGTGCTAG`: “fitted relative affinity” 0.555 z-score.
`TCAGATTTATCAAATGTGACTGTGCTA`: “fitted relative affinity” -0.505 z-score.
`AAAGATTTACAAACTGTGAGGGTGCTA`: “fitted relative affinity” -0.348 z-score.
`TCAAGCTTGGGTCTGTGACTGTGCTAG`: “fitted relative affinity” -0.439 z-score.
`CTTGTTCTTAGCTTGGGTCTGTGCTAG`: “fitted relative affinity” 0.123 z-score.
`TTAGATCTCCTACTGCTTTAGTGCTAG` — result for “fitted relative affinity”: 0.269 z-score.
For `GACGATATCGGGTTTTGAGACGTGCTA`, “fitted relative affinity” read 0.154 z-score.
`TTAGGTTTCCTTCGCCTTTAGTGCTAG` — result for “fitted relative affinity”: 1.96 z-score.
Under “fitted relative affinity”, `TCCCAATTCTCTTTTCACTTGTGCTAG` is recorded as 2.44 z-score.
Under “fitted relative affinity”, `TCAGATCTGCCGTCCCACACTGTGCTA` is recorded as 0.0981 z-score.
`GACGGACTGGACTTTCGGGACGTGCTA` — result for “fitted relative affinity”: 0.411 z-score.
`TGAGCACCCAGAGCCGCCTGGTGCTAG` — result for “fitted relative affinity”: -0.511 z-score.
`TTAGGACTGGGTCTCGGCTAGTGCTAG`: “fitted relative affinity” -0.0144 z-score.
`TTAGACTTCAGTTTCGATTAGTGCTAG` — result for “fitted relative affinity”: 8.47 z-score.
For `TTAGAACTGGGGTTGCGATTAGTGCTA`, “fitted relative affinity” read 0.63 z-score.

Series 5
Target: ABI1, truncated, D143A, DHFR fusion (Arabidopsis thaliana)
Method: DHFR PCA, deep sequencing
Matrix: yeast
Notes: methotrexate growth selection, single substitutions
Added: (+)-ABA 58 µM
Reference: wild-type fitted maximum
Direction: higher = stronger binding
Parent: PYL1, truncated, DHFR fusion (Arabidopsis thaliana); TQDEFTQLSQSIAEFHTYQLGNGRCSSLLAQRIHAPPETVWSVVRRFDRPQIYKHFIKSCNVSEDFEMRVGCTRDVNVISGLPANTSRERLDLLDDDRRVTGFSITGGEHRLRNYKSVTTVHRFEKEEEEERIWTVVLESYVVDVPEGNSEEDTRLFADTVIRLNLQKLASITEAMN
`R32Q`: “relative binding score” 88.1%.
For `C25F`, “relative binding score” read 46.4%.
`S80C` — result for “relative binding score”: 7.26%.
`G102T`: “relative binding score” 5.7%.
For `K116C`, “relative binding score” read 59.4%.
For `C60F`, “relative binding score” read 6.64%.
`A170I`: “relative binding score” 6.44%.
For `Q31W`, “relative binding score” read 49%.
`N22S` — result for “relative binding score”: 93.1%.
For `D75H`, “relative binding score” read 86.1%.
For `D65Y`, “relative binding score” read 67.9%.
`E147Y` — result for “relative binding score”: 78.1%.
`D92Q`: “relative binding score” 23.8%.
For `G108D`, “relative binding score” read 19%.
Under “relative binding score”, `T73K` is recorded as 71.3%.

Some of these lines once more (series 3):
The E-score of `GCTCTACC` is reported as -0.0187.
With `CATGCTAC` the E-score was -0.0826.
`AACTTAGC` has an E-score of -0.148.
The E-score of `CCGTATAG` is reported as 0.15.
